Experimental data pooled from the literature.
Each line is one published result; not all experiments were run side by side. Several values in a cell are separate wells, animals, samples, runs or records.
Cell line: MDCK

SMILES	method	concentration	time	pH	notes	measurement	value
NC(=O)c1ncn([C@@H]2O[C@H](CO)[C@@H](O)[C@H]2O)n1	microscopy, altered cell morphology	–	–	–	–	minimum cytotoxic concentration	≥ 20 µM
COc1cc(-c2ccnc3c2c(C)nn3-c2ccc(C(F)(F)F)cc2)ccc1O	–	–	–	–	–	CC50	27.8 µM and 25.3 µM
CC(N)C12CC3CC(CC(C3)C1)C2 (centres unmarked)	–	–	–	–	–	CC50	> 200 µM
NC12CC3CC(CC(C3)C1)C2	cell morphology	–	–	–	–	minimum cytotoxic concentration	> 500 µM
Cc1nn(-c2ccc(Cl)cc2)c2nc(N)c(C#N)c(-c3ccc(O)c(O)c3)c12	–	–	–	–	–	CC50	31.9 µM and 20.4 µM
COc1cccc(N2C(N)=NC(N)=NC23CCN(C(=O)OC(C)(C)C)CC3)c1	microscopy, altered cell morphology	–	–	–	–	minimum cytotoxic concentration	≥ 100 µM
COc1cc(-c2ccnc3c2c(C)nn3-c2cccc(C(F)(F)F)c2)ccc1O	–	–	–	–	–	CC50	48.6 µM and 49 µM
O=C(O)C(F)(F)C(F)(F)C(F)(F)C(F)(F)C(F)(F)C(F)(F)C(F)(F)F	–	2 µM	90 min	pH 7.4	receiver 0.4% BSA	Papp A to B	1.5 ×10⁻⁶ cm/s
Cc1cc(OCc2nnc(SC3CCCC3)n2-c2cccnc2)ccc1-c1ccc(S(C)(=O)=O)cc1	–	1 to 3 µM	–	–	–	viability	> 80%
Cl.NC1=NC2(CCCN(Cc3ccccc3)C2)N(c2ccc(Cl)cc2)C(N)=N1 (centres unmarked)	microscopy, altered cell morphology	–	–	–	–	minimum cytotoxic concentration	100 µM
NC(=O)c1ncn([C@@H]2O[C@H](CO)[C@@H](O)[C@H]2O)n1	cell morphology	–	–	–	–	minimum cytotoxic concentration	> 100 µM
O=C(O)C(F)(F)C(F)(F)C(F)(F)C(F)(F)C(F)(F)C(F)(F)C(F)(F)C(F)(F)C(F)(F)C(F)(F)C(F)(F)F	–	2 µM	90 min	pH 7.4	receiver 0.4% BSA	Papp A to B	14.3 ×10⁻⁶ cm/s
NC1=NC2(CCN(C(=O)C3CCC3)CC2)N(c2cccc(Cl)c2)C(N)=N1	microscopy, altered cell morphology	–	–	–	–	minimum cytotoxic concentration	≥ 20 µM
NC(=S)N/N=C/c1ccc(-c2ccc(C(=O)O)c(O)c2)o1	MTT	concentration not given	–	–	–	cytotoxicity	not toxic

Some of these lines once more:
SMILES	method	concentration	time	pH	notes	measurement	value
Cl.NC1=NC2(CCCN(Cc3ccccc3)C2)N(c2ccc(Cl)cc2)C(N)=N1 (centres unmarked)	microscopy, altered cell morphology	–	–	–	–	minimum cytotoxic concentration	100 µM
O=C(O)C(F)(F)C(F)(F)C(F)(F)C(F)(F)C(F)(F)C(F)(F)C(F)(F)F	–	2 µM	90 min	pH 7.4	receiver 0.4% BSA	Papp A to B	1.5 ×10⁻⁶ cm/s
